Experimental data of several laboratories.
Each numbered part is a random draw from the data of one study; scales do not carry over between parts. Substitutions count along the parent as printed.

Block 1
Target: RNA binding protein fox-1 homolog 2, RRM domain, GST-SBP tag (RBFOX2, Homo sapiens, UniProt O43251-10, residues 100-194)
Method: RNA Bind-n-Seq
Form: RNA
Matrix: in vitro
Concentration: 365 nM
Setting: natural RNA segment, single round, ends assumed
Relative to: no-protein control
Reading: higher = stronger binding
Construct (chain): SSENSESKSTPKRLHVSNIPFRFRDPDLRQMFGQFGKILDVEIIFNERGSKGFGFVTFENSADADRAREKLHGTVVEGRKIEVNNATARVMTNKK
Oligonucleotide | RBNS enrichment (R)
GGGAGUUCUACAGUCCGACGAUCUUAGGAUUUUACGUUAUUGUUAUUAUGGAAAGUGAUUGUGAUGCUAUUUAUCUUCAGGGUCACUCUGGGCAAAGAGAAGGUCCUCAGCCAUGCCCCCAGCACCUUGCACAUGGAAUUCUCGGGUGCCAA | 3.71
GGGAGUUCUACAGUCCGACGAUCACCUUGACUUCAUUUAUAUGAAUUUCCACUUUAUUAAAUAAUAGAAAAGAAAAUCCCGGUGCUUGCAGUAGAGUGAUAGGACAUUCUAUGCUUACAGAAAAUAUAGCCAUUGGAAUUCUCGGGUGCCAA | 0.653
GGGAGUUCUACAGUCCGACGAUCGCGGUGUUGAACUGUUUGUGUAGAAAGCCAUCUUUCUGUCUCUUAAGCUCCUCUGGUUUGUCUGGUAGGUGUAAUUACGCCUGGCGAGCCCUGGGCCCGGGUUGCUAAGCUGGAAUUCUCGGGUGCCAA | 0.448
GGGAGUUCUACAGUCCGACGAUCUGAUAGCAGCCAUGCCCCUGGGAGUCAACUUCAAGGAUCUGGGACAUUUUGGUGUGCCCAUUCCUUCUUUUCCUGAACUCACAGUCUUGGGGUGUUUCUGCACUUGGCUAUGGAAUUCUCGGGUGCCAA | 0.281
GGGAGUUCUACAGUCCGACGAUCCCCUCGUGGCAGGCGGGCAUGUCCCGCUCCCUUCCGCCACCAAUUUGUAUUAGAGAAGGCACUUUGAUUGUACAAUACUUCACAUUGCUUUUUUAAUGCAUAAAGGUUUGUGGAAUUCUCGGGUGCCAA | 0.404
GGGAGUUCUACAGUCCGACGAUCCUUUGGAUUAGAAAAGGCUUAUGUUAGCAACCUCAGAGACUUGAGCCCUGCUAAGUGACUGACCACUGUUUAGAAUGUCCAGAAUCUGAUGUCCAUCUGUCCCUGUGUCUUGGAAUUCUCGGGUGCCAA | 0.704
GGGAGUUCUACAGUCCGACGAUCGAGUGAUAAUUUAAAAUUGUUUCUAUGUAGAAUCAUUGUCUCUACUGUUGCCCUCUCUGUGUCUGCACACAUAAUGCCUCUCUCACUUUGGUGAAAUAUCAAAAAAAUGCUGGAAUUCUCGGGUGCCAA | 0.83
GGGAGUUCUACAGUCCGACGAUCUUUAAAAUUUGAGUAUUUUGGAUAUCAGUGUUCCUCAUGAAGAUAUACAUGGAUAUUCAAUUUUGAUGGCUUCCAGAUUUGUAAGAUUGUAUGUUGUAUAUACCAUUCUAUGGAAUUCUCGGGUGCCAA | 0.44
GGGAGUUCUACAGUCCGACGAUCCCCUCACCCCACUCUCUUCCCAUGUUCGUUGAUCCACCCCUAUCUGAGAAACUCCAGCCUCAAGAAUAUAAUCUCAUUCUAACCUUCACCUCUUCAACUUCUUCUGUGGCUGGAAUUCUCGGGUGCCAA | 1.98
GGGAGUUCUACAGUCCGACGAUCUCUCCUCUCCUCCUUGUCUGGCUCUGUUGACAAACCGGGCAUGUUUGGCAGUAAAUUGGCACCGUGUCACACUGUUUCCUGGGAUUCAAGUAUGCAACCAGAACACAGGAUGGAAUUCUCGGGUGCCAA | 1.42
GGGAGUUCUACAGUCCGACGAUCUGAAGGUUGGUCACCCAUCCAGCCUAUUACCUUUUGCUUUGUGUAUUAAAAGUGCUGCAAAAUCUGCCUUGCCUCCCAGGAGGCCCUUUUGUGUCUGAGGGAGGUGGGGAUGGAAUUCUCGGGUGCCAA | 0.325
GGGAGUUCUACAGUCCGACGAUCGACCUGAGGAAUCCCAGGCCUGUGAGAAAAGCAAAAAUUCACAUUGCAGCACAUGAUGCCAGAAAUAGCACUGAAUCAAGAAAAUAGCCAUUGCGGAGCUGCCCUCUUGAUGGAAUUCUCGGGUGCCAA | 0.749

Block 2
Target: Histone acetyltransferase KAT6A, winged helix 2, GST fusion (KAT6A, Homo sapiens, UniProt Q92794, residues 85-181)
Method: protein binding microarray
Form: double-stranded DNA, one strand shown
Matrix: in vitro
Concentration: not given
Setting: 8-mer, flanks averaged, mean of 2 arrays, mostly near background
Relative to: not given
Reading: higher = stronger binding
Target sequence (chain): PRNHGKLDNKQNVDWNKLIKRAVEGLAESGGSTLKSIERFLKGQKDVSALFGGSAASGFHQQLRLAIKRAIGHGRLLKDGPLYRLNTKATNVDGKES
Oligonucleotide | E-score
AAGGGTCG | 0.0535
GGAGATCC | 0.00251
TCTGAAGA | 0.0491
AATTAGGG | -0.188
CTCATTCC | -0.0952
CGTGAAAC | 0.00628
ATGAAAAG | -0.181
TCACCTAA | 0.00568
AGACGAAA | 0.0763
CAAGCCGC | 0.0958
GGTACCGA | 0.0205
CAATTTAG | 0.00924
ACTTCAAA | -0.0971
AGAAGGGC | 0.167
GAGGGTGA | 0.0296
GAGCTATA | -0.157
ACCCAGTG | -0.091
ATCCACCC | -0.161
GTGTTTCA | 0.0561
CGGAGGCC | 0.0468
CCGCACGA | 0.112
CCACGAAG | 0.129
CACTCGAC | -0.0143
GTCAAAAA | 0.0631
AGACCCCT | -0.184

Block 3
Target: CCNB3, cyclin fold, Cln2 fusion (human)
Method: yeast growth competition, sequencing
Matrix: yeast
Setting: weak parent motif
Relative to: not given
Reading: higher = stronger binding
Parent: SLBP docking peptide (human); ARYKRKLLINDFG; partner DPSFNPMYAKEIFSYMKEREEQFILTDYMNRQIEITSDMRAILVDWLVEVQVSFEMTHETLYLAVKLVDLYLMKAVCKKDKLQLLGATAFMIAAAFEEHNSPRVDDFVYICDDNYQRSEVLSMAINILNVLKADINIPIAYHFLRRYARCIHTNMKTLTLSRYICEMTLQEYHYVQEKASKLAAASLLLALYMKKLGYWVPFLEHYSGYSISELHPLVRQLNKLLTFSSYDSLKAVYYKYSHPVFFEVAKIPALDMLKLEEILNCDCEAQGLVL
Change | normalised enrichment score
ARYKRKLLINDFY [G13Y] | 0.537
ARYKRKLLINDPG [F12P] | -0.0157
ARYKRKLLIQDFG [N10Q] | 0.31
ARSKRKLLINDFG [Y3S] | 0.662
ARYKRKLLWNDFG [I9W] | 0.133
ARYKRKLLINDRG [F12R] | 0.28
ARYKRELLINDFG [K6E] | 0.438
ARYKRKLLINTFG [D11T] | 0.39
ARYKRQLLINDFG [K6Q] | 0.556
ARYKRKLLIEDFG [N10E] | 0.378
ARYKRKLLINSFG [D11S] | -0.0356
ARYKRKLLINDFV [G13V] | 0.483
ARYKRKLLILDFG [N10L] | 0.683
ARYKRKLLINKFG [D11K] | 0.155
ARYYRKLLINDFG [K4Y] | 0.369
ARYKRKLLQNDFG [I9Q] | -0.168
ARYKRKLLYNDFG [I9Y] | 0.152
ARYKRKLHINDFG [L8H] | -0.0558
ARYNRKLLINDFG [K4N] | 0.501

Block 4
Target: CREBRF, bZIP domain (human)
Method: DHFR protein complementation
Matrix: yeast
Setting: single substitutions, most at no-binding floor
Relative to: wild-type JUN-FOS pair
Reading: higher = stronger binding
Parent: JUN, bZIP domain (human); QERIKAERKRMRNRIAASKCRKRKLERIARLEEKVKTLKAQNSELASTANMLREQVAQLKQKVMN; partner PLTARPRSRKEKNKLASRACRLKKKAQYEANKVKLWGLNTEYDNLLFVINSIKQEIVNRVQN
Change | binding fitness
A29M | -1.25 natural log
Q55V | -1.53 natural log
E44R | -1.38 natural log
E32Q | -1.47 natural log
T37H | -1.28 natural log
T48C | -1.56 natural log
A57L | -1.57 natural log
V56P | -1.5 natural log
E44P | -1.52 natural log
N42W | -1.35 natural log
V35E | -1.5 natural log
L31A | -1.49 natural log
K36M | -1.46 natural log
S47L | -1.5 natural log
L31Q | -1.54 natural log
I28K | -1.47 natural log
L52H | -1.46 natural log

Block 5
Target: Centromere-binding protein 1, full length, N-terminal tag (CBF1, Saccharomyces cerevisiae, UniProt P17106, residues 1-351)
Chain of UniProt P17106 (whole entry, looked up): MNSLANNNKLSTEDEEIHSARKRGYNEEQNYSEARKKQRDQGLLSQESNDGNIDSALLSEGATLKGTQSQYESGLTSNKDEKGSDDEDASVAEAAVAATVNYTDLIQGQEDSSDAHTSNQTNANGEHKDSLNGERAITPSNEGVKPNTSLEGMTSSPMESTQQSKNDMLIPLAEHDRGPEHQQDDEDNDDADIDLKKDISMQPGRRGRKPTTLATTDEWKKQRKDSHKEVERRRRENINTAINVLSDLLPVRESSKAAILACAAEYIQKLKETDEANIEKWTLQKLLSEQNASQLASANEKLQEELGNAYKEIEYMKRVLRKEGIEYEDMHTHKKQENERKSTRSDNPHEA
Method: protein-binding microarray
Form: double-stranded DNA, one strand shown
Matrix: in vitro
Concentration: 0.8 µM
Setting: whole 60-bp probe, no competitor
Reading: higher = stronger binding
Oligonucleotide | fluorescence intensity [a.u.]
CCTAACTACTATATGTGCATGAAATAGCTTCGTACAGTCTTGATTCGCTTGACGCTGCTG | 530
GAAAATCTTTTCAGTGACGTCAGGACCGGTTTTTAGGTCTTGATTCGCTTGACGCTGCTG | 517
GAAAAAATAATTTTTGGTGTCACTTCCATCGTATAGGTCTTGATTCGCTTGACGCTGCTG | 512
GAAGGGGTAGTGGCGGTGGTGGTGGCGGCATCCTAGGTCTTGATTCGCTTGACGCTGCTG | 507
GAAAACTAGATGGCGCTCGTGATCCTGAAAACGTAGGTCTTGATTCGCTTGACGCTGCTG | 1940
GAAAGGTTCCCTTTTCTGATGACTCTTCTTGCTTAGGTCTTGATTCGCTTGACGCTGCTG | 520
GAAGTATAGCCAAAGAGCACGCCAAGTGGGGTCTAGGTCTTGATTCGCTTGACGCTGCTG | 498
CTAGTGTCAGCATGTGGGGTGAGGATAATGAGTTTCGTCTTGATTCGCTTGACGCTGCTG | 614
CTATACGTCAGATCACTGATGATGAACTCACCTTTCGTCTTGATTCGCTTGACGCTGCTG | 518
GAAGACTAGTTTTGGAGCGTGCGTTCCATCTATTAGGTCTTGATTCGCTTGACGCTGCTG | 510
GAACTTCTTAGACCGCACGTGATGATATTGAGATAGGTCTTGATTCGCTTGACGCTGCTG | 8050
CTAGTCTTATTCCCTCACCCCGCGTCCTTCTTCTTCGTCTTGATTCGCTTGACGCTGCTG | 497
GAAGATGCATCTTTTCACATGGTCCACTGTTTTTAGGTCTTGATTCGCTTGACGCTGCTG | 599
CTAATACACTTTTATCATGTGAAGATTGAAAGGTTCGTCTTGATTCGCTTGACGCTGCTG | 833
GAAAAAATAAAGAACTTCGTGCAGTACTTATACTAGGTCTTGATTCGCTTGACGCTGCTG | 500
GAATATTTCTCATTTCACGTTATTTTCTCCAAATAGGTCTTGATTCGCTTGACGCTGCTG | 640
GAATGAACAGGATTTTTCCACGTGGATTGGGCATAGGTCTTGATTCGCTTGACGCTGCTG | 2470
CTACAAGAGGCCCATCAGGTGATCCATGATAACTTCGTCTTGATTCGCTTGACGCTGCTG | 2790
CTAACCTGGGTTTCCTGCACCACCAGCCCCCATTTCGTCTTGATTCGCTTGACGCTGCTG | 457
TGTACGAAGCTATATCACCTGACTATAGTAGTTAGGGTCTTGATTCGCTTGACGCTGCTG | 3920
CTACTGATTTGAACTCATGTGATCACTTTTGTTTTCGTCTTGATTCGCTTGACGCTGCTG | 2970
CTACGCAGCTGCTATCATGTGTCTATTTGAGATTTCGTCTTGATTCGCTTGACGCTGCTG | 838
CTAGCACTATTTTTTCATGTGCTGAACTTCAGGTTCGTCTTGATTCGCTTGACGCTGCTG | 680

For quick reference, copied from above (block 3):
Change | normalised enrichment score
ARYKRKLLILDFG [N10L] | 0.683
ARYKRKLLIEDFG [N10E] | 0.378
ARYKRKLLINSFG [D11S] | -0.0356
ARYKRKLLQNDFG [I9Q] | -0.168
ARYKRQLLINDFG [K6Q] | 0.556
ARYKRKLLIQDFG [N10Q] | 0.31
